Experimental data of several laboratories.
A part holds a random share of what one study measured. Substitutions count along the parent as printed.

Set 1
Target: CCNB1, cyclin fold, Cln2 fusion (human)
Method: yeast growth competition, sequencing
Matrix: yeast
Notes: weak parent motif
Reference: not given
Reading: higher = stronger binding
Parent: RP1L1 docking peptide (human); TLGLGPLSFTLED
Substitution	normalised enrichment score
L7A	-0.239
D13A	-0.162
F9A	-0.156
T1A	-0.0162
E12A	0.0674
L11A	-0.113
S8A	-0.261

Set 2
Target: Interferon regulatory factor 5, full length, phosphomimetic (IRF5, Homo sapiens, UniProt Q13568-2, residues 1-514, S451D/S453D/S456D/S462D)
Method: protein-binding microarray
Molecule type: double-stranded DNA, one strand shown
Matrix: in vitro
Concentration: 940 nM top
Notes: 60-bp whole probe
Together with: salmon DNA 0.4 mg/ml
Reference: random background probes
Reading: higher = stronger binding
Shared flanks, not repeated: GCCTAGCAC … GTCTTGATTCGCTTGACGCTGCTG
Oligonucleotide	fitted relative affinity
GACGGACGGCTACTGCTGACGTGCTAG	-0.933 z-score
TTAGGTATCGGGACTGGGTAAGTGCTA	4.26 z-score
GACGATTTCAGTTTCGATACGTGCTAG	8.85 z-score
GACGGTTTCGGACTTGGGACGTGCTAG	5.18 z-score
TCACTCTTTGGCAAAGCCAGGTGCTAG	0.0447 z-score
GACGATTCCAGTGTCGAGACGTGCTAG	-0.0363 z-score
GACGGTTTCGACCTTCGGGACGTGCTA	6.79 z-score
AATGGAACAAATATGTTTATGTGCTAG	-0.123 z-score
GGCGGTCTCGGACTGGGGACGTGCTAG	0.667 z-score
GTGCCCGCTGCTTCCGGTGCGTGCTAG	-0.621 z-score
TTCGGACTGGGGACTGGGTTAGTGCTA	-0.181 z-score
GACGTTCTCAGTCTCGAGACGTGCTAG	1.89 z-score
GACGGTTTCCTAATGCTGACGTGCTAG	0.728 z-score
TTAGGTTTCGGACTGGGGTAGTGCTAG	7.24 z-score
CTGCATTTTTTTTTTCTACTGTGCTAG	1.31 z-score
TTAGGTACCCTTTTCCTTTAGTGCTAG	0.794 z-score
TTAGGTTTCGGTCTCGGTCAGTGCTAG	15.2 z-score
TCAGGTTCCCATTCCAGACTGTGCTAG	0.151 z-score
TTAGTACTGCTTTTCCTTTAGTGCTAG	0.8 z-score

Set 3
Target: ABI1, truncated, D143A, DHFR fusion (Arabidopsis thaliana)
Method: DHFR PCA, deep sequencing
Matrix: yeast
Notes: methotrexate growth selection, single substitutions
Together with: (+)-ABA 0.39 µM
Reference: wild-type fitted maximum
Reading: higher = stronger binding
Parent: PYL1, truncated, DHFR fusion (Arabidopsis thaliana); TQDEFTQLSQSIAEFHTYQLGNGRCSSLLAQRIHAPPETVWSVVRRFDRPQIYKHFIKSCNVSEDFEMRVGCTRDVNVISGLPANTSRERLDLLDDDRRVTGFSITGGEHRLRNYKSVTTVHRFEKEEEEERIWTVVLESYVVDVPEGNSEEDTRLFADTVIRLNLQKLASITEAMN; partner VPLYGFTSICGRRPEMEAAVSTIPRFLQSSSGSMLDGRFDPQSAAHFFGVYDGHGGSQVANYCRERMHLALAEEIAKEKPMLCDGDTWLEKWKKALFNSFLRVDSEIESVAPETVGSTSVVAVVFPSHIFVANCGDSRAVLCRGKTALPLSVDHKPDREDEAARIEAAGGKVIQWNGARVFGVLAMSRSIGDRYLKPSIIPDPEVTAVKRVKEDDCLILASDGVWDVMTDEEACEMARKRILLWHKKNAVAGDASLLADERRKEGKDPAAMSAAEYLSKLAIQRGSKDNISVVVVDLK
Substitution	relative binding score [%]
D95M	-2.72
V137I	1.97
S27K	-6.91
L156H	5.13
S11Y	37.1
C25D	-12.5
V70D	6.98
L91R	-6.07
S117I	-13.1
N165P	13.4
R45N	-24.6
L93I	79.5
F56Q	-8.82
D96E	44.5
E139I	-25.6
I162S	14

Other studies, line by line
Substance	target	test	system	conditions	scale	measurement	result
PhoQ, residues 284 288 289 292 302 303 WVSSAF	PhoP, residues 12 14 15 18 19 LHTVM (Escherichia coli, UniProt P23836)	Sort-seq, refers to: YFP reporter	E. coli	PhoQ-PhoP variant library, together with: 10 µM Mg2+	reference: high Mg2+ state, higher = stronger signaling	fold induction	5.6

For quick reference, copied from above (set 2):
Oligonucleotide	fitted relative affinity
TCACTCTTTGGCAAAGCCAGGTGCTAG	0.0447 z-score
TTAGGTTTCGGTCTCGGTCAGTGCTAG	15.2 z-score
GACGGTTTCGGACTTGGGACGTGCTAG	5.18 z-score
TTCGGACTGGGGACTGGGTTAGTGCTA	-0.181 z-score
